# Measurements pooled from the literature.
# Parts stem from different laboratories: compare values within a part only. Substitutions count along the parent as printed.

# Block 1
# Target: RNA binding protein fox-1 homolog 2, RRM domain, GST-SBP tag (RBFOX2, Homo sapiens, UniProt O43251-10, residues 100-194)
# Technique: RNA Bind-n-Seq
# Form: RNA
# Medium: in vitro
# Tested at: 365 nM
# Notes: natural RNA segment, single round, ends assumed
# Relative to: no-protein control
# Direction: higher = stronger binding
# Shared flanks, not repeated: GGGAGUUCUACAGUCCGACGAUC … UGGAAUUCUCGGGUGCCAA
# Residues (chain): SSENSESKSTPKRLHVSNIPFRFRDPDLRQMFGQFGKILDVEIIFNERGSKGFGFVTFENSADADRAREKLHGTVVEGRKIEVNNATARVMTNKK
Strand,RBNS enrichment (R)
GUGUCCCCAAGGUUCUUCCAUCUUCUAGACUGUAACCCUGCCUCCCUGCUUCCUGGUCCAGAGCCUCCCUCCAGUGACUGUGGAGCCUGAGAAGGCCCCCGGGCCCCAGC,0.353
AAGAGAGGUUUUGGCUUGUCACAGCAAGGGGAUGCUCUUGGCAUCUAGUGAGUGGAGGCCAGGGAUGCUGCCCUGCCACUGCCAUUGGGCCUCAGAGCUCAGUCUUGCCA,0.575
GGUAGAAAUUAAUCUUAACAAGACUUUAUGAGGCAGGAUCAAAUCCUAGUGGGCCUGAGCAGGUUUCUUACCCUAAGUGUUUUCUCCCUUUUUACAAUCUCUGUCCAGCA,3.78
UUUUAAAUCCUUUAAAAACACUCACCAUAUAAACUUGCAUUUGAGCUUGUGUGUUCUUUUGUUAAUGUGUAGAGUUCUCCUUUCUCGAAAUUGCCAGUGUGUACUUGGCU,1.5
GCAUGUCCCCUAAUGGGGACUGGCUCUCGCUUCACCCCCAUGGGGUUCCUCUAAUAAGGACCAGCCUUCUACCCUGGUGGAGACCAAAGGCCUCCUCCCGUUUCUCAUCA,1.79
GUAUAAUCUGGUCAGCUUGGACAAUUCCUGCCUCAUUUCCUAUUAAUGUUAGUUUGGAUAAAAAUAAUUAGCAUUUAGUAAUUGCCUUGUUUCUGAGUUUAGCCUAUAUA,0.452
ACAUAAGUGAAAGAAGUCUCAGUUCAGUGAACACAAAACUUAUUUAAAGAUGCUUUAUAUGUAGAAAUUGUUUCAAAUCAUACUCUAACCCUUAGUGAGGGCAAAGUGUA,0.837
AUCCUGAAAUACGGCGUGUGUACUUUAACAAGGGCCUUGAAGCCAAGAUCAAGUGCUGGAGGCCGGAGCCAUCUGUGAGCCUCCCUAAGCCACAGCAGUGAGGAGAUUUG,0.279
ACUAGAUCAUGAUAUACUUGGAAAGUGUGAAAUAUGGUGUGUACUCAGUUAUUGGCUUCCAUUUUUUAUGAUCUUUCAACUAUAACAAUUAUGAUAGAAAUCGAUUUAAC,0.335
GAACCUGACAGGACGCUGAAGAUGUGCGGGCAGUUGUGCACCGUCAGUGAGGGAGAGAGACCCCGACUCCAUUUGUACUUCUUUCUUGACACUCUUCUCAGCUUAUAAAA,0.84
AAAUGCUUACCGUGUGACCCUUGGGCUUUCAGCGUGCACUCAGUUCCGUAGGAUUCCAAAGCAGACCCCUAGCUGGUCUUUGAAUCUGCAUGUACUUCACGUUUUCUAUA,9.98
CAUCCAAGAAUUCGUCAUCACGCUGCACAGGCUGCGUCUUUGACGGUGGGUGUUCCAUUUUUAUCCGCUACUCUUUAUUUCAUGGAGUCGUAUCAACGCUAUGAACGCAA,0.326

# Block 2
# Target: Prothrombin, mature alpha-thrombin (F2, Homo sapiens, UniProt P00734)
# Technique: aptamer microarray, sandwich
# Form: DNA with 2'F-ANA
# Medium: in vitro
# Tested at: 200 nM
# Notes: whole 15-mer aptamer, many near background
# Added: Cy3 exosite-II aptamer, 400 nM
# Direction: higher = stronger binding
# Strand: GGTTGGTGTGGTTGG
Modification,mean fluorescence intensity [a.u.]
2'F-ANA at 1 6 8 9 10 13,47.8
2'F-ANA at 1 2 3 8 12 15,554
2'F-ANA at 1 2 4 6 8 9 10 11 12 13 14 15,53.4
2'F-ANA at 2 3 7 9 11 14 15,378
2'F-ANA at 2 4 8 9 10 12 15,121
2'F-ANA at 1 5 6 9 10 14,60.4
2'F-ANA at 5 9 11 12 15,122
2'F-ANA at 2 3 4 10,310
2'F-ANA at 1 2 3 4 10 13 14,50.3
2'F-ANA at 1 2 3 10 11 12 13 14,65.8
2'F-ANA at 2 4 5 7 8 13,55.4
2'F-ANA at 1 2 5 7 8 9 12 14 15,50.1
2'F-ANA at 1 2 3 5 6 7 9 10 11 13 14,46
2'F-ANA at 1 2 4 6 9 12,270
2'F-ANA at 1 5 6 7 9 10 12 13 15,52
2'F-ANA at 2 3 7 9 10 13 14,278
2'F-ANA at 2 3 4 5 6 7 8 11,88.6
2'F-ANA at 6 9 10 13 15,131
2'F-ANA at 1 4 7 8 10 11 12 13 14,41.7
2'F-ANA at 3 5 7 9 10 13 15,56.4
2'F-ANA at 6 7 10 12 13 15,193
2'F-ANA at 2 8 10 12 15,174
2'F-ANA at 3 6 8 10 12,504
2'F-ANA at 1 3 4 6 7 9 11 12 13 15,163
2'F-ANA at 2 3 4 6 11 14 15,226

# Block 3
# Target: TAR DNA-binding protein 43, full length, His tag (TARDBP, Homo sapiens, UniProt Q13148, residues 1-414)
# Technique: RNA Bind-n-Seq
# Form: RNA
# Medium: in vitro
# Tested at: 20 nM
# Notes: 6-mer, flanks averaged, single round
# Added: 150 mM KCl
# Relative to: input library
# Direction: higher = stronger binding
Strand,6-mer enrichment (R)
CGACUC,0.61
UUCGCG,0.811
CGCGGA,1.53
CGGAGU,1.29
GGACAA,1.12
GGUAAC,0.921
GUAUCU,0.603
AUGAUA,0.69
AUUGGC,0.757
CUCGCC,0.601
UGAACC,0.668
CCCUUA,0.646
GAGUCC,0.816
UCAAAC,0.585
ACAGCC,0.667
CUACUC,0.551
UCACAG,0.676
UACAGG,1.04
CUGCUC,0.601
CUAUAG,0.634
UAGCCC,0.648
GCGUAU,0.906
GGACAG,1.89
GUACAU,0.655
GCCACA,0.782

# Block 4
# Target: Fragile X messenger ribonucleoprotein 1, C-terminal low-complexity region (Fmr1, Mus musculus, UniProt P35922)
# Technique: RNA Bind-n-Seq
# Form: RNA
# Medium: in vitro
# Tested at: 200 nM
# Notes: whole 134-nt RNA, ends assumed
# Added: 150 mM LiCl
# Relative to: input library
# Direction: higher = stronger binding
# Each molecule: 7-deaza-guanosine replaces G
# Shared flanks, not repeated: GGGAGUUCUACAGUCCGACGAUC … UGGAAUUCUCGGGUGUCAAGG
Strand,log2 enrichment
CAAGUCCUGUGCUACACAUCGUAUGUACCGAAUCGGGUUUUUGGGUUUGGGUGGGAAAGUAUUAUGUUACGCCGUUCGGAUCUGCACUUC,-1.4
ACCAUGCAGGUGGGCAUCUUUGGGAAGUGAGGCAAGGGGGGGAUAGGGAGGGGGGUAACACUUUGGGAACAGGUGGUCCCAGGUCGUUUC,1.54
CCUCAAGUCCUGUGCUACACAUCGUAUGUACCGAAUCGGAAAGGAAAGGUGGAAAGUAUUAUGUUACGCCGUUCGGAUCUGCACUUCCAG,-0.563
GUCCUGUGCUACACAUCGUAUGUACCGAAUCAAACCCCCCCAAAUUUUUAAACCCAAAAAAGUAUUAUGUUACGCCGUUCGGAUCUGCAC,1.36
GCAGGAAGUAAAAACAAAUGGAAAUGCUUCGGAUAGUGGCAGGGAUGGGGGUUGCUAAGGAAAGGGUGGGAUGGGAGUGGGUAAAGAGUU,1.63
UGGCGCCGUUCGACACCAGGCGGAUCCGCUCUGCAGCACGAACCCAUCUCCAGCCGCAGCCGCAGCCGCCGCCCGGGCCGAGGAGCAGCC,0.251
CUCAAGUCCUGUGCUACACAUCGUAUGUACCGAAUCGGGAGGGAAAGGGUGGGAAAGUAUUAUGUUACGCCGUUCGGAUCUGCACUUCCA,-0.8
UCCUGUGCUACACAUCGUAUGUACCGAAUCGGGGUUUUUUGGGGUUUUUUGGUUUUUUGGAAAGUAUUAUGUUACGCCGUUCGGAUCUGC,-0.179
UCCUGUGCUACACAUCGUAUGUACCGAAUCAAAUUUUUUUAAACCCAAACCCCCCCAAAAAAGUAUUAUGUUACGCCGUUCGGAUCUGCA,1.61
UCCUGUGCUACACAUCGUAUGUACCGAAUCGGGUUUUUGGGUUUUUUUGGGAAAAAGGGAAAGUAUUAUGUUACGCCGUUCGGAUCUGCA,-0.615
AAGUCCUGUGCUACACAUCGUAUGUACCGAAUCGGGCCCCCGGCCCCCGGCCCCCGGAAAGUAUUAUGUUACGCCGUUCGGAUCUGCACU,-0.0314

# Block 5
# Target: CREBRF, bZIP domain (human)
# Technique: DHFR protein complementation
# Medium: yeast
# Notes: single substitutions, most at no-binding floor
# Relative to: wild-type JUN-FOS pair
# Direction: higher = stronger binding
# Parent: JUN, bZIP domain (human); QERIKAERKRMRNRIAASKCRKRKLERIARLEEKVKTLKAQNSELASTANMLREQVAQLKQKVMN; partner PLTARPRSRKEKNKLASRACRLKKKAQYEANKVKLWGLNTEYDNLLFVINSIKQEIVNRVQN
Substitution,binding fitness
L38Q,-1.58 natural log
E54P,-1.5 natural log
R30C,-1.43 natural log
I28W,-1.27 natural log
K39N,-1.44 natural log
A29L,-1.48 natural log
K36C,-1.17 natural log
A57R,-1.49 natural log
M51G,-1.37 natural log
E54A,-1.38 natural log
S47R,-1.38 natural log
E33C,-1.51 natural log
M51T,-1.39 natural log
L31F,-1.61 natural log
E44W,-1.31 natural log
N42P,-1.52 natural log
T48A,-1.53 natural log
V35I,-0.872 natural log
A49G,-1.48 natural log
L45E,-1.59 natural log
T37S,-1.52 natural log
S47A,-1.25 natural log
K39S,-1.5 natural log
T37R,-1.43 natural log
K36D,-1.67 natural log

# Excerpt of the above (block 2):
Modification,mean fluorescence intensity [a.u.]
2'F-ANA at 1 2 3 8 12 15,554
2'F-ANA at 1 2 4 6 8 9 10 11 12 13 14 15,53.4
2'F-ANA at 2 3 7 9 11 14 15,378
2'F-ANA at 2 4 8 9 10 12 15,121
2'F-ANA at 1 5 6 9 10 14,60.4
2'F-ANA at 5 9 11 12 15,122
2'F-ANA at 2 3 4 10,310
2'F-ANA at 1 2 3 4 10 13 14,50.3
2'F-ANA at 1 2 3 10 11 12 13 14,65.8
2'F-ANA at 2 4 5 7 8 13,55.4
2'F-ANA at 1 2 5 7 8 9 12 14 15,50.1
2'F-ANA at 1 2 3 5 6 7 9 10 11 13 14,46
2'F-ANA at 1 2 4 6 9 12,270
2'F-ANA at 1 5 6 7 9 10 12 13 15,52
2'F-ANA at 2 3 7 9 10 13 14,278
2'F-ANA at 2 3 4 5 6 7 8 11,88.6
